Experimental data gathered from unrelated publications.
Numbered parts are unrelated; each lists some results of a single study. Changes are numbered by the printed parent chain.

Block 1 — technique: RNA Bind-n-Seq; form: RNA; medium: in vitro; concentration: 365 nM; reference: no-protein control; reading: higher = stronger binding; measurement: RBNS enrichment (R)
Target: RNA binding protein fox-1 homolog 2, RRM domain, GST-SBP tag (RBFOX2, Homo sapiens, UniProt O43251-10, residues 100-194)
Setting: natural RNA segment, single round, ends assumed
Constant ends, left off below: GGGAGUUCUACAGUCCGACGAUC … UGGAAUUCUCGGGUGCCAA
Construct (chain): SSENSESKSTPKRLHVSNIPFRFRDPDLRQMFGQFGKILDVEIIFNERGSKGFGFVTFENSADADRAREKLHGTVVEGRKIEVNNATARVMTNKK
Strand = AGAGCGCGGUACAGCUGGGCCCAGCCCUGGAGAACCUCUCUUGUCCCAAGGAGCUUCGUGAACUGGCAGAGGCUGAAGCGAUCCAGUUGGGCCUCUCUUGACUAUAGCAG; result = 0.278
Strand = CAUGCCAGUUCCUGAGCAUCCUUUAUGUGCAUUUGCAUUCUCAGUGGUCCUGCCUGUAUGCUGGUUCACAUCCAUCUUUUCAUCUGCACACUCUUUUUCUCGGCGAAUGC; result = 0.664
Strand = AAUUAUUGGCUGAGCCCACGGUCCCCUCAGCAGGGAUGCGAUGGUCUCUGAAUCAGUGUGCAGCUGGGGUCCCAGGCAGCGCUGCCUGGGGGCUGGGGAGGGGAGGCCCA; result = 0.531
Strand = UUUGUGAGCUCUGGGCUUGUCUCCAUGGGAACAGGGGUGCCUUCUUAGUGAGCUCAUUUCACACAGAUCGAGGGGGUAUGCGUGGGGGAGUUGUGAGUGAGCUCAGCUCC; result = 6.25
Strand = ACAGACCUUGUGAUUUGGUCUGAGCUAGUUGCUGAGUUGACUGGAGCCUUAUUUGAAUGGAUCUUUGAGUUGAGAUCUUCACACUGUCAGUGAGCCCUUGGCUCAGCCCU; result = 0.832
Strand = GAGCUGUGUGUGUCCACCGAGGCACGGCCAGGAAGAGGCAGCCUUUACCUGUGAGGGGCUCCAUGCUCCAGCAGCAGAGCAGGUUCUAGUGACAAUUCAACUUUUUAUGC; result = 0.214
Strand = GGUAUAUUUGAAGAGCUUGGGAUGGAUUUGACUAAAUCUGCCCCGAGGAGGGUGAACAAGGUGAUCUCAGAGAUCACUACUGCUCUUGGAGUUCCUUCUCCUAAAGCUAA; result = 0.412
Strand = AUGUGAUGGAAAGACUUUUUGUUUUCCUUUCCCAAAGAAAUAAAACGGAAAAAGCCUCUUGAGUGGUUUCUUUGGCCUGCUUGUGUCUUUGCAGGUGCGGGAGGUGAGGC; result = 0.769

Block 2 — target: CCND1, cyclin fold, Cln2 fusion (human); technique: yeast growth competition, sequencing; medium: yeast; setting: weak parent motif; reference: not given; reading: higher = stronger binding; measurement: normalised enrichment score
Parent: CDC25A docking peptide (human); PPHRRRLLFACSP; partner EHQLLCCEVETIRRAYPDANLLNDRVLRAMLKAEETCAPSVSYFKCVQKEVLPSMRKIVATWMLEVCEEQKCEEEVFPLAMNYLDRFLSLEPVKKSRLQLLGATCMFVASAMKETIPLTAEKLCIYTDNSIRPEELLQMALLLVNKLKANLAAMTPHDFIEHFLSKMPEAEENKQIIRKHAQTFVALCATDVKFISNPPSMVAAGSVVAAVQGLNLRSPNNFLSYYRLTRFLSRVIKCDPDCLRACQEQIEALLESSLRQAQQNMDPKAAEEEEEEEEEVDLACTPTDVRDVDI
Substitution = R4T; result = 0.378
Substitution = S12V; result = 0.475
Substitution = R4N; result = 0.462
Substitution = P2V; result = 0.00599
Substitution = A10V; result = -0.211
Substitution = P1W; result = 0.321
Substitution = R5K F9L; result = 0.059
Substitution = L7W; result = 0.479
Substitution = S12E; result = 0.274
Substitution = H3M; result = 0.296
Substitution = P1Q; result = -0.0939
Substitution = S12Y; result = 0.439
Substitution = P1E; result = -0.034
Substitution = H3N; result = 0.167
Substitution = C11H; result = 0.0616
Substitution = R5D; result = 0.0776
Substitution = P1C; result = -0.276
Substitution = L8M; result = -0.235
Substitution = P2D; result = -0.133
Substitution = C11Q; result = 0.35
Substitution = R4G; result = 0.303
Substitution = R6Y; result = -0.117
Substitution = F9G; result = 0.349
Substitution = L7R; result = 0.0981
Substitution = P2A; result = 0.156

Block 3 — technique: DHFR PCA, deep sequencing; medium: yeast; together with: (+)-ABA 0.0091 µM; reference: wild-type fitted maximum; reading: higher = stronger binding; measurement: relative binding score
Target: ABI1, truncated, D143A, DHFR fusion (Arabidopsis thaliana)
Setting: methotrexate growth selection, single substitutions
Parent: PYL1, truncated, DHFR fusion (Arabidopsis thaliana); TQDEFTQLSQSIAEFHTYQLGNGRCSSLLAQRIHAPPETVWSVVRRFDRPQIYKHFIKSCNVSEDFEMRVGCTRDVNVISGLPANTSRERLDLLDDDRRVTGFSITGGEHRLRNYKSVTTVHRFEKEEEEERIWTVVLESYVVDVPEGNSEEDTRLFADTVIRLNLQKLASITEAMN
Substitution = I33G; result = 3.38%
Substitution = E38S; result = 1.96%
Substitution = R98T; result = 3.66%
Substitution = F15P; result = 1.14%
Substitution = P36M; result = 4.63%
Substitution = L156K; result = -1.49%
Substitution = D48C; result = 0.422%
Substitution = R123K; result = 56.8%
Substitution = R46P; result = -1.18%
Substitution = A13I; result = 0.879%
Substitution = E127C; result = 32.2%
Substitution = V40F; result = -5.26%
Substitution = D97R; result = 16.9%
Substitution = V44W; result = 3.98%
Substitution = M68I; result = 38.4%
Substitution = F47M; result = -5.04%
Substitution = S63A; result = 52.9%
Substitution = S104R; result = 3.22%
Substitution = D3Y; result = 46.2%
Substitution = E4Y; result = 15.3%
Substitution = Q10C; result = 9.42%
Substitution = D95G; result = -9.04%
Substitution = R88N; result = 3.62%
Substitution = C72E; result = 14.4%
Substitution = E174D; result = -1.38%

Block 4 — technique: protein-binding microarray; form: double-stranded DNA, one strand shown; medium: in vitro; concentration: 2200 nM top; setting: 60-bp whole probe; together with: salmon DNA 0.4 mg/ml; reference: random background probes; reading: higher = stronger binding; measurement: fitted relative affinity; constant ends, left off below: GCCTAGCAC … GTCTTGATTCGCTTGACGCTGCTG
Target: Interferon regulatory factor 7, full length, phosphomimetic (IRF7, Homo sapiens, UniProt Q92985, residues 1-503, S471D/S472D/S475D/S476D/S477D/S483D/S484D/S487D)
Residues (chain): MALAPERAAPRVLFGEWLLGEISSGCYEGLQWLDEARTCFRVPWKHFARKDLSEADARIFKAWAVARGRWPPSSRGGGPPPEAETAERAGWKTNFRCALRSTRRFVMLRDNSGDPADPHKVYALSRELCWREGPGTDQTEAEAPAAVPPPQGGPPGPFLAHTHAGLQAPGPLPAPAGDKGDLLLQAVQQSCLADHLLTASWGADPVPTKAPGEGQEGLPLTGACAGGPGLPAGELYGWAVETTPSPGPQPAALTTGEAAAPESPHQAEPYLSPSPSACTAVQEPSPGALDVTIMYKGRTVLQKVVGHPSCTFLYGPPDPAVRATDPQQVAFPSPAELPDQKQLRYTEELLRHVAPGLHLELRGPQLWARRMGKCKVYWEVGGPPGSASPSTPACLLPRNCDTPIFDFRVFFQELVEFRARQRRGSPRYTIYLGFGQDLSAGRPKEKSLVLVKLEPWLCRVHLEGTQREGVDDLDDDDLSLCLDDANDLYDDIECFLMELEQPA
Strand = TTAGGACTGCTTCTCATTTAGTGCTAG; result = 0.603 z-score
Strand = TTAGATTTCCGTATCGATTAGTGCTAG; result = 1.53 z-score
Strand = TTAGGTATGGGTCTCGGTTAGTGCTAG; result = 0.527 z-score
Strand = TTAGATATCAGTAACGATTAGTGCTAG; result = -0.353 z-score
Strand = TTAGGACTGGGGTATCGTTTAGTGCTA; result = -0.159 z-score
Strand = TCAACTCCAGTTCTGGGACTGTGCTAG; result = 0.463 z-score
Strand = GACGGTTTCTACTTTCGGGACGTGCTA; result = 7.71 z-score
Strand = TTAGAACTGAGTCTCGATTGGTGCTAG; result = 0.103 z-score
Strand = TCAGTTTTACTTTCTATACTGTGCTAG; result = 4.19 z-score
Strand = GACGGTTTCGGGTCCGGGACGTGCTAG; result = 6.69 z-score
Strand = GACGGTCTCGGACTGTGGACGTGCTAG; result = -0.331 z-score
Strand = TTTTACATTTTAAGAAATGTGTGCTAG; result = 0.878 z-score
Strand = GACGATATCAGTCTCGAGTCGTGCTAG; result = 0.816 z-score
Strand = TCAGTTTTTCATTTTTTACTGTGCTAG; result = 2.39 z-score
Strand = GACGGTATCATACTGCTGACGTGCTAG; result = 0.523 z-score
Strand = TTAGGTCTCGGTATCAGTTAGTGCTAG; result = 0.6 z-score
Strand = AAGGTTATCCATCTCAAGTAGTGCTAG; result = 0.179 z-score
Strand = TTATCAATCATTTTAGTTTTGTGCTAG; result = 1.69 z-score
Strand = TAAGGTATCGGTCTCGGTTAGTGCTAG; result = 0.793 z-score
